Measurements of several laboratories.
Each line is one published result; not all experiments were run side by side. ± gives the spread as reported.

With O=C(CN1C(=O)S/C(=C\c2ccccc2)C1=O)Nc1ccc(C(=O)Nc2ccc(F)cc2)cc1 the IC50 was 9.17 to 47.2 µM (HT-29, A549, HCT-116; cell growth, MTT; range over cell lines).
For COc1cc(/C=C/C=O)ccc1O, the IC50 was over 30 µM (SCM-1; cytotoxicity, MTT).
For O=C1CC[C@H](N2Cc3cc(-c4cnn5ccc(Cl)nc45)ccc3C2=O)C(=O)N1, the IC50 was over 0.1 µM (MOLM-13; cell growth, CellTiter luminescence; 72 h).
With [Cl][Pd-2]1([Cl])[N+](=Cc2ccc[nH]2)Cc2cccc[n+]21 the IC50 was 24.9 µg/mL (MCF-12A; cell growth or viability, MTT; 24 h).
COc1cc(OC)cc(C2=C3C(C)=C(I)C(/C=C/c4cccs4)=[N+]3[B-](F)(F)n3c(/C=C/c4cccs4)c(I)c(C)c32)c1 has an IC50 of over 400 µM (HEp-2; cell growth or viability, resazurin; 24 h, dark).
COc1c(O)cc2oc3cc(O)c(CCC(C)C)c(O)c3c(=O)c2c1CCC(C)C gave an IC50 of 14.3 µM (BEAS-2B; cell growth or viability).
COC(=O)CNc1cc(CS(=O)(=O)c2ccc3ccccc3c2)ccc1OC gave an IC50 of 0.154 µM (SCC-15; cell growth or viability, MTS; 48 h).
With O=C(/C=C/c1cccc(S(=O)(=O)Nc2ccc(F)cc2)c1)NO the IC50 was 0.312 ± 0.114 µM (MOPC-315; cell growth; 24 h).
For Cc1ccc(C(C)C)cc1.Cc1ncc(CO)c(C=NNC2=Nc3ccccc3-c3[nH]c4ccc(Br)cc4c3C2)c1O.[Cl-].[Cl][Ru+], the IC50 was 2.5 ± 0.7 µM (NCI-N87; cytotoxicity, MTT; 96 h).
C1=[N+]2CCCC[N+]3=Cc4ccc5[n]4[Au-]23[n]2c1ccc2-c1nc2ccccc2nc1-5.F[P-](F)(F)(F)(F)F gave an IC50 of 5 µM (NCI60 leukemia cell lines; mean of cell lines).
For Cc1cc(C)cc(/C=N/NC(=N)N/N=C/c2cc(C)cc(C)c2)c1, the IC50 was 141 ± 21.1 µM (hTERT-HPNE; cell growth, crystal violet; 72 h).
The IC50 of Cc1cc(O)cc2c1O[C@](C)(CCC[C@H](C)CCC[C@H](C)CCCC(C)C)CC2 is reported as 5.57 µM (SK-MEL-24; cell growth or viability, MTT; 24 h).
For COC(=O)[C@H]1[C@H]2C[C@H]3O[C@@]4(CCN3C[C@H]2C[C@@H](OC(=O)c2cc(OC)c(OC)c(OC)c2)[C@@H]1OC)C(=O)Nc1cc(OC)c(-c2ccc(C)cc2)cc14, the IC50 was 2.38 µM (NALM-6; cell growth or viability, trypan blue; 72 h).
With C/C(=N/O)c1ccc(NS(=O)(=O)c2cccc(/C=C/C(=O)NO)c2)cc1 the IC50 was 2.14 ± 1.25 µM (MOPC-315; cell growth; 24 h).
With CCCCCCCCn1c2ccccc2c2cc(-c3cn(-c4ccc(-c5cc(-c6ccccn6)nc(-c6ccccn6)c5)cc4)nn3)ccc21 the IC50 was over 25 µM (NHDF normal human fibroblasts; cytotoxicity, MTS; 72 h).
For CC1(C)C=Cc2c(O)cc(/C=C/c3ccc(O)cc3O)cc2O1, the IC50 was 46 µM (T.Tn; cell growth, MTT; 72 h).
For C=CC(=O)N1C[C@H](C)N(c2nc(OC[C@@]34CCCN3C[C@H](F)C4)nc3c(F)c(-c4ccc(F)c5sc(N)c(C#N)c45)c(C(F)(F)F)cc23)C[C@H]1C, the IC50 was over 10 µM (BRAF V600E-driven mouse embryonic fibroblasts; measured: pERK).
CC1=C2[O][Ru-]([Cl])[O+]=C2C=CN1CCCCCCN1C=CC2=[O+][Ru-]([Cl])[O]C2=C1C.Cc1ccc(C(C)C)cc1.Cc1ccc(C(C)C)cc1 has an IC50 of over 20 µM (KYSE70-oxo oxoplatin-resistant; crystal violet; 96 h).
For COc1ccc([C@@H]2CC(=O)c3c(O)cc(O[C@@H]4O[C@H](CO[C@@H]5O[C@@H](C)[C@H](O)[C@@H](O)[C@H]5O)[C@@H](O)[C@H](O)[C@H]4O)cc3O2)cc1O, the IC50 was over 150 µg/mL (MRC5; cell growth or viability, trypan blue; 72 h).
For C[C@@H](NC(=O)Cc1ccc(Cl)c(SC2C(=O)CC(c3c(Cl)cccc3Cl)CC2=O)c1)c1cccc2ccccc12 (some centres unmarked), the IC50 was 23 µM (B16-F10; cell growth or viability, SRB; 72 h).
With N#C/C(=C\c1cn(-c2ccccc2)nc1-c1ccccc1)c1nc2ccccc2[nH]1 the IC50 was over 100 µM (ASPC1; cell growth or viability, ATP luminescence; 72 h).
CC(C)=CCc1c2c(c(O)c3c(=O)c(-c4ccc(O)cc4O)coc13)C=CC(C)(C)O2 has an IC50 of 23.8 µM (KKU100; cell growth or viability, MTT; 24 h).
For N=C(N/N=C/c1ccc2ccccc2c1)N/N=C/c1ccc2ccccc2c1, the IC50 was 276 ± 55.2 µM (hTERT-HPNE; cell growth, crystal violet; 72 h).
With [Cl][Pd-]1([Cl])[S]C(Nc2ccccc2)=N[N+]1=Cc1ccc(-c2ccccc2)s1 the IC50 was 100 µM (HEL human lung fibroblasts; cell proliferation).
CSc1nc(Nc2ccc(C(=O)N/N=C/c3c(Cl)cccc3Cl)cc2)c(C#N)c(-c2ccccc2)n1 has an IC50 of 1.14 to 10.3 µM (HCT-116 and MCF7; cell growth, MTT; range over compound group).
The IC50 of N=C(N/N=C/c1ccc(Cl)cc1)N/N=C/c1ccc(Cl)cc1 is reported as 48.5 ± 9.7 µM (hTERT-HPNE; cell growth, crystal violet; 72 h).
With CC(C)c1cccc(C(C)C)c1-n1ccn(-c2c(C(C)C)cccc2C(C)C)c1=[Se].[Cl][Au] the IC50 was 3 ± 0.7 µM (H157 lung carcinoma cells; cell viability, MTT; 72 h).
With Cc1cc(C=O)cc(C)c1Oc1cc(Nc2ccc(C#N)cn2)nc2cnccc12 the IC50 was 95.9 ± 2.9 µM (S102; 48 h).
Oc1cccc2[nH]c(/C(=N/OCc3ccccc3)c3cc4cccc(O)c4o3)nc12 gave an IC50 of 30.5 ± 0.2 µM (SNU-1 (KRAS G12D); cell viability, CellTiter-Glo; 72 h).
The IC50 of O=C(CCCN1C(=O)c2cccc3cccc(c23)C1=O)NO is reported as 87.1 ± 2.5 µM (HCT-8; cytotoxicity; 48 h).
CC(C)=CCC1=C([O-])C(=O)c2ccccc2C1=O.CC(C)=CCC1=C([O-])C(=O)c2ccccc2C1=O.Cc1cc2cccnc2c2ncccc12.[Cu+2] has an IC50 of 0.9 ± 0.1 µM (A2780R cisplatin-resistant; cell viability, MTT; 24 h).
The IC50 of Fc1ccccc1/C=C/c1nc2ccccc2nc1N1CCOCC1 is reported as 1.18 µM (B16-F10; cell growth or viability, MTT; 72 h).
COc1cc(OC)cc(C2=C3C(C)=C(I)C(C)=[N+]3[B-](F)(F)n3c(/C=C/c4c[nH]c5ccc([N+](=O)[O-])cc45)c(I)c(C)c32)c1 has an IC50 of 5 µM (HEp-2; phototoxicity, CellTiter-Blue; together with: light 1.5 J/cm^2).
The IC50 of Cc1cc2cc(C(=O)N(Cc3ccc(C(F)(F)F)cn3)[C@H](C)c3ncccn3)ccc2nc1N is reported as 0.04 µM (HCT-116 MTAP-deleted; 144 h).
With O=C(N[c-]1cccc1)OCc1ccc(F)cc1.[Fe+2].c1cc[cH-]c1 the IC50 was 17.9 µM (BL2; cell growth or viability, MTT; 48 h).
COc1c(O)cc2oc3c(Br)c(O)c(CC=C(C)C)c(O)c3c(=O)c2c1CC=C(C)C gave an IC50 of over 40 µM (BEAS-2B; cell growth or viability).
COc1cc(N(C)CCN(C)C)c(NC(=O)/C=C/c2ccc3ccccc3c2)cc1Nc1nccc(-c2cn(C)c3ccccc23)n1 gave an IC50 of 0.577 µM (NCI-H1975; cell growth or viability, MTT; 72 h).
For Cn1c(SCC(=O)N2CCC(=C3c4ncccc4CCc4cc(Cl)cc(Br)c43)CC2)nnc1-c1ccccc1, the IC50 was over 120 µM (HOP-62; cell growth or viability, SRB).
COc1ccc(NC(=O)N/N=C2\CC3(CCN(C)CC3)Oc3ccccc32)cc1 has an IC50 of 1.15 to 9.09 µM (MCF7, HCT-116, PC-3, A549; cell growth, MTT; range over cell lines).
With Cc1cc(C=O)cc(C)c1Oc1cc(Nc2ccc(C#N)cn2)nc2ccncc12 the IC50 was over 126 µM (S102; 48 h).
For CC(C)C1OC(=O)C(NC(=O)c2cccc(O)c2)C(C)OC(=O)C(C(C)C)OC(=O)C(C)(C)C(=O)C(Cc2ccccc2)OC1=O (centres unmarked), the IC50 was over 20 µM (HCT-8; cell growth or viability, CCK-8; 72 h).
For [Cl][Pt-]1([Cl])[S]C(Nc2ccccc2)=N[N+]1=Cc1ccc(-c2ccccc2)s1, the IC50 was 52.7 µM (HEL human lung fibroblasts; cell proliferation).
COC(=O)[C@H]1[C@H]2C[C@H]3O[C@@]4(CCN3C[C@H]2C[C@@H](OC(=O)c2cc(OC)c(OC)c(OC)c2)[C@@H]1OC)C(=O)Nc1cc(OC)c(Br)cc14 gave an IC50 of 4.02 µM (NALM-6; cell growth or viability, trypan blue; 72 h).
The IC50 of CSCCC(NC(C)=O)C(=O)O.[Ru+2].c1ccc(-c2cccc(-c3ccccn3)n2)nc1.c1ccc(-c2ccccn2)nc1 is reported as over 100 µM (HL-60; cell growth or viability; dark).

For quick reference, copied from above:
For C=CC(=O)N1C[C@H](C)N(c2nc(OC[C@@]34CCCN3C[C@H](F)C4)nc3c(F)c(-c4ccc(F)c5sc(N)c(C#N)c45)c(C(F)(F)F)cc23)C[C@H]1C, the IC50 was over 10 µM (BRAF V600E-driven mouse embryonic fibroblasts; measured: pERK).
The IC50 of N=C(N/N=C/c1ccc(Cl)cc1)N/N=C/c1ccc(Cl)cc1 is reported as 48.5 ± 9.7 µM (hTERT-HPNE; cell growth, crystal violet; 72 h).
The IC50 of O=C(CCCN1C(=O)c2cccc3cccc(c23)C1=O)NO is reported as 87.1 ± 2.5 µM (HCT-8; cytotoxicity; 48 h).
The IC50 of Cc1cc(O)cc2c1O[C@](C)(CCC[C@H](C)CCC[C@H](C)CCCC(C)C)CC2 is reported as 5.57 µM (SK-MEL-24; cell growth or viability, MTT; 24 h).
For Cn1c(SCC(=O)N2CCC(=C3c4ncccc4CCc4cc(Cl)cc(Br)c43)CC2)nnc1-c1ccccc1, the IC50 was over 120 µM (HOP-62; cell growth or viability, SRB).
For N=C(N/N=C/c1ccc2ccccc2c1)N/N=C/c1ccc2ccccc2c1, the IC50 was 276 ± 55.2 µM (hTERT-HPNE; cell growth, crystal violet; 72 h).
For CC(C)C1OC(=O)C(NC(=O)c2cccc(O)c2)C(C)OC(=O)C(C(C)C)OC(=O)C(C)(C)C(=O)C(Cc2ccccc2)OC1=O (centres unmarked), the IC50 was over 20 µM (HCT-8; cell growth or viability, CCK-8; 72 h).
